Assay results gathered from unrelated publications.
Lines come from different studies, so protocols differ. ± gives the spread as reported.
Organism: Plasmodium falciparum

| Compound | assay | system | conditions | EC50 [nM] |
| --- | --- | --- | --- | --- |
| COc1ncc(Nc2ccnc3ccc(-c4ccc(S(=O)(=O)N5CCOCC5)cc4)cc23)cn1 | parasite growth, SYBR Green | TM91C235 | – | 970 |
| CCn1cc(C2CC2)c2c(Cc3cnc(C(F)(F)F)c(C)c3)n(C)nc2c1=O | parasite growth | 3D7 | – | 4.4 |
| COCC(=O)N1CCC[C@H](C(=O)NCc2nc(-c3ccc(C(=O)N(C)C)cc3)cs2)C1 | parasite growth, SYBR Green | 3D7, asexual blood stage | 72 h | > 5000 |
| O=S(=O)(c1ccc(-c2ccc3nccc(Nc4ccncn4)c3c2)cc1)N1CCOCC1 | parasite growth, SYBR Green | D6 | – | 8600 |
| CCN(c1ccc(C)cc1)c1ccc(NC(=O)CN(C)c2ccccc2N2CCCC2=O)cn1 | gametocyte viability, luciferase | stage V gametocytes | 48 h | 78 |
| CCOCC(=O)N1C2CCC(C(=O)NCc3nc(-c4ccc(C#N)cc4)cs3)C1CC2 (stereo not shown) | SYBR Green growth | asexual blood-stage parasites, 3D7 | 72 h | 33 ± 9.6 |
| CCn1cc(Cl)c2c(Cc3ccc(C(F)(F)F)nc3)n(C)nc2c1=O | parasite growth | 3D7 | – | 12.6 |
| O=C(NCc1nc(-c2ccccc2)cs1)[C@H]1CCCN(C(=O)[C@H]2CCCO2)C1 | SYBR Green growth | asexual blood-stage parasites, 3D7 | 72 h | 91 ± 12 |
| O=S(=O)(c1ccc(-c2ccc3nccc(Nc4ccc(OCc5cccc(F)c5)cc4)c3c2)cc1)N1CCOCC1 | parasite growth, SYBR Green | TM91C235 | – | 1300 |
| CCn1cc(C2CC2)c2c(Cc3ccc(C(F)(F)F)nc3)n(C)nc2c1=O | parasite growth | 3D7 | – | 20 |

Repeated from above:
| Compound | assay | system | conditions | EC50 [nM] |
| --- | --- | --- | --- | --- |
| CCn1cc(C2CC2)c2c(Cc3cnc(C(F)(F)F)c(C)c3)n(C)nc2c1=O | parasite growth | 3D7 | – | 4.4 |
